Experimental data pooled from the literature.
Each numbered part is a random draw from the data of one study; scales do not carry over between parts. Positions count from the first letter of the parent shown.
UniProt P54756, sequence (whole entry, looked up): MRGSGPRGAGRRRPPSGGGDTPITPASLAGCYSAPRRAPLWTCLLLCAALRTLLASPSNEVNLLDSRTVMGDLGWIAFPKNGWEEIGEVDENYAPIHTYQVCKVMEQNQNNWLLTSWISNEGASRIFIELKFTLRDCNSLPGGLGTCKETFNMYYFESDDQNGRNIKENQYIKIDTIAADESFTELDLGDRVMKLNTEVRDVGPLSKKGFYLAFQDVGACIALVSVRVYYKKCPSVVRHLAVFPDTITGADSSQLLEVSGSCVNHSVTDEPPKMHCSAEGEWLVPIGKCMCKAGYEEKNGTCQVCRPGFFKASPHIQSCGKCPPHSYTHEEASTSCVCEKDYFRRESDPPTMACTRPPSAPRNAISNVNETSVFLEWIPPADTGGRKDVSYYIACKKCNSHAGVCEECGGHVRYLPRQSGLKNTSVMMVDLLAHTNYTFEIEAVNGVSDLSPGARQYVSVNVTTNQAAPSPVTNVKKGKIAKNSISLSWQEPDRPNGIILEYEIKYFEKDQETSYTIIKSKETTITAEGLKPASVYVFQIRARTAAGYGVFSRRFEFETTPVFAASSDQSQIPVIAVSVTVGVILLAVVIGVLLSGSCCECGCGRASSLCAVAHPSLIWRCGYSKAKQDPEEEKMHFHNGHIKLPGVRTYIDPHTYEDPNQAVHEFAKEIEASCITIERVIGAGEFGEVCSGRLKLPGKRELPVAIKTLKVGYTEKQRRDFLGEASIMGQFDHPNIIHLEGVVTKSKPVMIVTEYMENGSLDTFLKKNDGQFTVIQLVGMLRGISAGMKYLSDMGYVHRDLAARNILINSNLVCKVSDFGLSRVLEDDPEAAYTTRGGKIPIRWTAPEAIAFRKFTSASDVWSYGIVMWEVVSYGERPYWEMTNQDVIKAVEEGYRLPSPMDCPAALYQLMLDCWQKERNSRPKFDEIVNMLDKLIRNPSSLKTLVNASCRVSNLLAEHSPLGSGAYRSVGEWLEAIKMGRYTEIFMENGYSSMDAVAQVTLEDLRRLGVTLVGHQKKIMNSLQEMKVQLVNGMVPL
UniProt Q13043, sequence (whole entry, looked up): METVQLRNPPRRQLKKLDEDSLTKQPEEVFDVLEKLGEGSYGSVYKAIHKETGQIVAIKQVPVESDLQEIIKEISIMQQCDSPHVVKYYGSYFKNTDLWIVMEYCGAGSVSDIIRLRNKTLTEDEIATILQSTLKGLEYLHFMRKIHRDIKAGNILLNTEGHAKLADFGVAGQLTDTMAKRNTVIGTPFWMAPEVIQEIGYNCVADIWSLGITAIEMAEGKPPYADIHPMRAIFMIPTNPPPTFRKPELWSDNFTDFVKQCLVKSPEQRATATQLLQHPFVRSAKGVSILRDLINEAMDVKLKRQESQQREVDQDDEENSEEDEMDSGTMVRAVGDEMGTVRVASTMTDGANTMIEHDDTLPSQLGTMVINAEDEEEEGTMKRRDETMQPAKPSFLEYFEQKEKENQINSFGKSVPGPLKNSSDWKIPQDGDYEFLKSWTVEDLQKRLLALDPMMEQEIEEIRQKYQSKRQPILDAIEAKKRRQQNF
UniProt Q16584, sequence (whole entry, looked up): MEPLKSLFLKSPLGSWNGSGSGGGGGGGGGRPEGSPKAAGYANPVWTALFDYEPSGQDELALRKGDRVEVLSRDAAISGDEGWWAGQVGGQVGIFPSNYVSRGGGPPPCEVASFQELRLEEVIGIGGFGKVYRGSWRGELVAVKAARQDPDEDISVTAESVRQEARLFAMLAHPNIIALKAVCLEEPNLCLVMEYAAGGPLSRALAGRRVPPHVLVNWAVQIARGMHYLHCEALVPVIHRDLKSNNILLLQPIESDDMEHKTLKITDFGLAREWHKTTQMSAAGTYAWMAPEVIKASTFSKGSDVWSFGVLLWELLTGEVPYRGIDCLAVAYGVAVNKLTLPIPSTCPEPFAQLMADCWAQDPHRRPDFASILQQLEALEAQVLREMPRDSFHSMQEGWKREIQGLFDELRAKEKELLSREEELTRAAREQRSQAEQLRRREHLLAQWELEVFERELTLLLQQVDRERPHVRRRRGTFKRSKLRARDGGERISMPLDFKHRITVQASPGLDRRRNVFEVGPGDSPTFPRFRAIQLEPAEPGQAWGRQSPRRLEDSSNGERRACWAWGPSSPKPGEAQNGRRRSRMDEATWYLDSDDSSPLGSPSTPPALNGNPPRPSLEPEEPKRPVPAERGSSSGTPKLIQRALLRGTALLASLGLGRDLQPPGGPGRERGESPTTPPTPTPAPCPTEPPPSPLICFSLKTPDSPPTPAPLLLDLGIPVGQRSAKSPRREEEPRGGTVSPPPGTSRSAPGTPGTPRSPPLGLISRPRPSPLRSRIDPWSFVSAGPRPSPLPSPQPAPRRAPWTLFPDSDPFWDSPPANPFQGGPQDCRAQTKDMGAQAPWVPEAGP
UniProt Q15349, sequence (whole entry, looked up): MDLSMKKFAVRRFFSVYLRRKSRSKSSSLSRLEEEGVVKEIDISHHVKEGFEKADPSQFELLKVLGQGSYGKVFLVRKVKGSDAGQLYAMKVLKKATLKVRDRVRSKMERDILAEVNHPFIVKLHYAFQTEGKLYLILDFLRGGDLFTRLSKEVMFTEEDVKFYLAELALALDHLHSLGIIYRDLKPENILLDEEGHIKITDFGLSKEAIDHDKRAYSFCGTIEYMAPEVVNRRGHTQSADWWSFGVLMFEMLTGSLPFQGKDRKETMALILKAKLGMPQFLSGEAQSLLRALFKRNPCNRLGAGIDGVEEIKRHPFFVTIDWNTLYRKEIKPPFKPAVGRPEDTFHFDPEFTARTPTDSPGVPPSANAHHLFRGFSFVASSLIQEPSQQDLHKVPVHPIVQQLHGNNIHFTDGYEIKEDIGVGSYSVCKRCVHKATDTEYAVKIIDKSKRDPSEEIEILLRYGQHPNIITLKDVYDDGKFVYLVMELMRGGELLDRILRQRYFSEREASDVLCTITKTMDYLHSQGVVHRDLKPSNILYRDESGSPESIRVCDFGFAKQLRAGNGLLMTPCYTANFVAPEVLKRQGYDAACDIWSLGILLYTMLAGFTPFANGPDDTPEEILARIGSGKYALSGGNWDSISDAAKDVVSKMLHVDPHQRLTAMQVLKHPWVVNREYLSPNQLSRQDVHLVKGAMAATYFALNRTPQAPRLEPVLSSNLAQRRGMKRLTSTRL

Set 1
SMILES: Cc1cc(NC(=O)c2cccc(S(F)(F)(F)(F)F)c2)cc(-n2ccn3nc(-c4cccnc4)cc23)c1
Read-out: cell-free assay
Technique: competition with immobilised ligand
Tested at: 1 µM
target | remaining binding [%]
Ribosomal protein S6 kinase alpha-2, C-terminal kinase domain (RPS6KA2, Homo sapiens, UniProt Q15349) | 100
TNIK (Homo sapiens, UniProt Q9UKE5) | 100
STK4 (Homo sapiens, UniProt Q13043) | 100
MAP3K11 (Homo sapiens, UniProt Q16584) | 100
EPHA5 (Homo sapiens, UniProt P54756) | 100

Set 2
Target: STE20-like serine/threonine-protein kinase (SLK, Homo sapiens, UniProt Q9H2G2)
UniProt Q9H2G2, sequence (whole entry, looked up): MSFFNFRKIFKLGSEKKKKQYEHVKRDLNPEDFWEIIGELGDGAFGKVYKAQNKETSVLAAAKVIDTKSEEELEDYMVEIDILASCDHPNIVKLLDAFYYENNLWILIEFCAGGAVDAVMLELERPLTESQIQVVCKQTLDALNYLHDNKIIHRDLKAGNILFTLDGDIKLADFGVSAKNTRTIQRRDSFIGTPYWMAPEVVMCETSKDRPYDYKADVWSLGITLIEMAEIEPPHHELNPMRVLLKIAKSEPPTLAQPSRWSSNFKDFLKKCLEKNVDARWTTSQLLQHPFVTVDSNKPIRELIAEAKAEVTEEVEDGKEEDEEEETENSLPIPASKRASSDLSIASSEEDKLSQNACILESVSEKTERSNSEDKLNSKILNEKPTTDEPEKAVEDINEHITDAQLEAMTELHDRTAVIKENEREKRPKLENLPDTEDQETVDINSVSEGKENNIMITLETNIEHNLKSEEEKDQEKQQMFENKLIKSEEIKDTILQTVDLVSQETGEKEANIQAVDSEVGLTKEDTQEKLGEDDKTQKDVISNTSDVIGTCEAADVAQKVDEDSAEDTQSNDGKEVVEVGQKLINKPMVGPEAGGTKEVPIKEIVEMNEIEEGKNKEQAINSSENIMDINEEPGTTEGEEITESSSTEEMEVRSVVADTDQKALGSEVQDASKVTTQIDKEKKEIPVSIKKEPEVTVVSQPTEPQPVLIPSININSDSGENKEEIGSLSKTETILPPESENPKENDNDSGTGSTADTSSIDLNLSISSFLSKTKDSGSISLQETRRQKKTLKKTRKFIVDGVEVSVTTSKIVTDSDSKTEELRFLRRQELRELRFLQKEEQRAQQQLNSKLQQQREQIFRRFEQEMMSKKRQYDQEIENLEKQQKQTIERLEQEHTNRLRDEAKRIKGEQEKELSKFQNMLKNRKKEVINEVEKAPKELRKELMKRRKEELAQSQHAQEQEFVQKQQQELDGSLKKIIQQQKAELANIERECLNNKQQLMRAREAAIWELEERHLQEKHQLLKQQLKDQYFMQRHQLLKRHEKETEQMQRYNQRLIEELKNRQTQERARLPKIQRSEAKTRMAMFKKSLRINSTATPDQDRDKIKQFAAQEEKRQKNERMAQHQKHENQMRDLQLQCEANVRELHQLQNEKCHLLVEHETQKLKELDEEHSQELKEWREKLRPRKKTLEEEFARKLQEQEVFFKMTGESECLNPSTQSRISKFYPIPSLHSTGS
Read-out: enzyme activity
Mode: inhibitor
Tested at: 0.5 µM
Relative to: control
SMILES | remaining activity
CN(C)S(=O)(=O)c1ccc2c(c1)/C(=C/c1cc3c([nH]1)CCCC3)C(=O)N2 | 23.4%
O=C(c1cc2cc(O)ccc2[nH]1)c1cc2cc(O)ccc2[nH]1 | 78.6%
O=c1c(-c2ccc(F)cc2)c(-c2ccncc2)[nH]n1-c1ccc(Cl)cc1 | 98.2%
CN1CCN(c2ccc3nc(-c4c(N)c5c(F)cccc5[nH]c4=O)[nH]c3c2)CC1 | 68.1%
O=C1NC(=O)c2c1c1c3ccccc3[nH]c1n1cncc21 | 87.8%
O=C1Nc2ccccc2/C1=C\c1c(Cl)[nH]c2ccccc12 | 93.5%
O=C1NC(=O)/C(=C/c2ccc3c(c2)OC(F)(F)O3)S1 | 98.3%
O=C(O)/C=C/c1cc(Br)c(Br)c(Br)c1Br | 96%
O=Nc1c(-c2c(O)[nH]c3cc(Br)ccc23)[nH]c2ccccc12 | 56.1%
O=C1Nc2ccc(Br)cc2/C1=C/c1cc2c([nH]1)CCCC2 | 73.4%
CCN(CC)CCCCN1c2ccccc2Oc2ccc(Cl)cc21 | 105%
CC(C)N(CCC(=O)c1ccc2ccccc2c1)Cc1ccccc1 | 101%
O=C(c1ccccc1)c1ccc(N2CCOCC2)cc1O | 106%
COc1ccc(COc2ccc(Cc3cnc(N)nc3N)cc2OC)cc1 | 97.7%
Oc1cccc(-c2nc(N3CCOCC3)c3oc4ncccc4c3n2)c1 | 101%
c1ccc2c(-c3ccncc3)c[nH]c2c1 | 103%
Cc1cc(Nc2cc(N3CCN(C)CC3)nc(Sc3ccc(NC(=O)C4CC4)cc3)n2)[nH]n1 | 59.6%
N#Cc1cnc2cnc(NCc3cccnc3)cc2c1Nc1ccc(F)c(Cl)c1 | 86.6%
FC(F)(F)c1ccc(/C=C/c2nc(COc3ccc(CCCCn4ccnn4)cc3)co2)cc1 | 92.8%

Set 3
Target: ABI1, truncated, D143A, DHFR fusion (Arabidopsis thaliana)
Technique: DHFR PCA, deep sequencing
Medium: yeast
Setting: methotrexate growth selection, single substitutions
Added: (+)-ABA 2500 µM
Relative to: wild-type fitted maximum
Reading: higher = stronger binding
Starting sequence: PYL1, truncated, DHFR fusion (Arabidopsis thaliana); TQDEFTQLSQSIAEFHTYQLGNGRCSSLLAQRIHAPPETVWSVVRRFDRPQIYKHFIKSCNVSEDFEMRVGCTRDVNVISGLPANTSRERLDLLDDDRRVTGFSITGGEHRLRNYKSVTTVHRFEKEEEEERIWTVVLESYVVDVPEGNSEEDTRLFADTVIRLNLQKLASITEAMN
Change | relative binding score [%]
E139V | 94
A175V | 94.4
G108K | 75.8
V40R | -20.4
L166A | 36.8
L20P | 94.5
P146L | 74.4
D96R | 65.6

Set 4
Cell line: HaCaT
Tested at: 100 µM
Time: 36 h
Compound | viability [%]
CCOC(=O)CCC(=O)O[C@H]1[C@H](O[C@@H]2[C@@H](C)[C@H](O[C@H]3C[C@@](C)(OC)[C@@H](O)[C@H](C)O3)[C@@H](C)C(=O)O[C@H](CC)[C@@](C)(O)[C@H](O)[C@@H](C)C(=O)[C@H](C)C[C@@]2(C)O)O[C@H](C)C[C@@H]1N(C)C | 74
Cc1cn(-c2cc(NC(=O)c3ccc(C)c(Nc4nccc(-c5cnccn5)n4)c3)cc(C(F)(F)F)c2)cn1 | 8.88
C[C@H](CCC(=O)O)[C@H]1CC[C@H]2[C@@H]3CC[C@@H]4C[C@H](O)CC[C@]4(C)[C@H]3CC[C@]12C | 77.6
NCCCC(N)(C(=O)O)C(F)F (centres unmarked) | 95.7
COc1cc(CCC(=O)O)ccc1O | 90.4

Further values, each from its own experiment
Compound | cell line | technique | tested at | time | relative to | quantity | result
O=C1Nc2cc(Br)ccc2/C1=C1/Nc2ccccc2/C1=N\O | HuT78 | CCK-8 | 2 µM | 48 h | untreated | viability | 64.4%

Excerpt of the above (set 2):
SMILES | remaining activity
O=C1Nc2ccc(Br)cc2/C1=C/c1cc2c([nH]1)CCCC2 | 73.4%
N#Cc1cnc2cnc(NCc3cccnc3)cc2c1Nc1ccc(F)c(Cl)c1 | 86.6%
CN(C)S(=O)(=O)c1ccc2c(c1)/C(=C/c1cc3c([nH]1)CCCC3)C(=O)N2 | 23.4%
